Published values gathered from unrelated publications.
Each line is one published result; not all experiments were run side by side.

SMILES	test system	setting	Cmax
O.O=C(O)/C=C\C(=O)O.O=c1[nH]cnc2n[nH]cc12	female BALB/c mouse, plasma	oral, 30 mg/kg	16000 ng/mL
Cc1cc(NCCOC(C)C)c2nc(N3CCOC[C@H]3C)cc(=O)n2c1	C57BL/6 mouse, plasma	intraperitoneal, 10 mg/kg, single dose	14300 ng/mL
Nc1ccn(C[C@@H](CO)OCP(=O)(O)OCCCS(=O)(=O)CCCCCCCCCCCCC2CCC2)c(=O)n1	mouse, plasma	intravenous, 3 mg/kg, single dose	1690 ng/mL
COc1ccc(OC)c(C(=Cc2ccc(O)c(OC)c2)C(=O)NCCc2ccc(O)cc2)c1	Kunming mouse, plasma	oral, 50 mg/kg	~361 ng/mL
CCc1nc(N)nc(N)c1C#C[C@H](C)c1cc(-c2cc(C)nc(C)c2)ccc1Cl	mouse, plasma	oral, 5 mg/kg	400 ng/mL
CCOC(=O)c1nc2cc(Cl)c(Cl)cc2nc1N1CCN(C(=O)Nc2ccc(N3CCNCC3)cc2)CC1	male mouse, plasma	oral, 10 mg/kg	38 ng/mL
C[C@H]1CN(C(=O)c2cn(-c3ccnc(N)n3)c3cc(C#CC4(O)CCCCC4)ccc23)CCN1	CD-1 mouse, plasma	intravenous, 1 mg/kg	591 ng/mL
CCS(=O)(=O)c1ccccc1C(=O)N1CCN(c2nc3ccc(F)cc3s2)C[C@@H]1C	mouse, plasma	oral, 3 mg/kg	613 ng/mL
C[C@@H](COc1ccc(F)cc1)C(=O)n1nc(N)c2ccc(CO)cc21	male C57BL/6 mouse, plasma	oral, 10 mg/kg	3400 nM
N#Cc1cnc2cc(OCC3CCNCC3)c(F)cc2c1Nc1cc(F)c(OCc2cccc(Cl)n2)cc1Cl	female CD-1 mouse, plasma	intravenous, 5 mg/kg	1050 ng/mL
COc1ccc(C(=O)c2c(C(=O)NCCCN(C)C)oc3ccc(Cl)cc3c2=O)cc1OC	male C57BL/6 mouse, brain	intraperitoneal, 5 mg/kg	123 ng/mL
CC(=O)N[C@@H](Cc1ccc(O)cc1)CN(CC(=O)N[C@@H](CCCCN)CN(CC(=O)N[C@@H](Cc1ccccc1)CN(CC(=O)N[C@H]1CCCCNc2c(F)c(F)c(c(F)c2F)S(=O)(=O)c2c(F)c(F)c(c(F)c2F)NCCCC[C@@H](CN(CC(=O)N[C@@H](C)CN(CC(N)=O)S(C)(=O)=O)S(C)(=O)=O)NC(=O)CN(S(=O)(=O)CC(C)C)C[C@H](CC(C)C)NC(=O)CN(S(=O)(=O)CCN)C1)S(=O)(=O)CC(C)C)S(=O)(=O)CCN)S(C)(=O)=O	C57BL/6 mouse, plasma	intraperitoneal, 50 mg/kg	38900 ng/mL
Cc1ccc2oc(-c3c4c(N)n[nH]c(=O)c4nn3-c3ccc(NC(=O)/C=C/CN(C)C)cc3)c(C)c2c1	mouse, plasma	intraperitoneal, 3 mg/kg	282 ng/mL
CCC(=C(c1ccc(Cl)cc1)c1ccc(OCCN2CCOCC2)cc1)c1ccc(OC)cc1	female C57BL/6 mouse, plasma	oral, 400 mg/kg, single dose	3540 ng/mL
NC(=O)c1c(F)ccc(OCc2nc3cc(Cl)cnc3s2)c1F	mouse, plasma	oral, 3 mg/kg	700 ng/mL
CC(C)n1ncc2c(C(=O)NCCN(C)C)cc(C3CC3)nc21	female BALB/c mouse, plasma	intraperitoneal, 50 mg/kg	916 ng/mL
Cc1cccc(O[C@H]2CCC[C@@H](C(C)CNCc3ccncc3)C2)c1 (relative stereo)	female C57BL/6 mouse, brain	oral, 25 mg/kg	1700 ng/mL
CN1CCC(N[C@@H]2CCc3[nH]c4c(C(N)=O)ccc(-c5ccccc5Cl)c4c3C2)CC1	mouse, plasma	oral, 10 mg/kg	98.1 ng/mL

SMILES	test system	setting	Cmax
CCCCCCCCCCCCCCCC(=O)OCC(CSC[C@H](N)C(=O)NCC(=O)N[C@@H](CC(=O)O)C(=O)N1CCC[C@H]1C(=O)N[C@@H](CCCCN)C(=O)N[C@@H](Cc1c[nH]cn1)C(=O)N1CCC[C@H]1C(=O)N[C@@H](CCCCN)C(=O)N[C@@H](CO)C(=O)N[C@@H](Cc1ccccc1)C(=O)O)OC(=O)CCCCCCCCCCCCCCC (some centres unmarked)	mouse, plasma	subcutaneous, 4 mg/kg	1340 ng/mL
CCCCC(CC)CNC(=N)NC(=N)NCCCCCCCCNC(=N)NC(=N)NCC(CC)CCCC (centres unmarked)	female BALB/c mouse, plasma	intraperitoneal, 5 mg/kg, single dose	140 ng/mL
Brc1ccccc1-c1nnc(CSc2nnnn2-c2ccccc2)o1	male C57BL/6 mouse, plasma	intraperitoneal, 10 mg/kg	2630 nM
CCC/C(=C\C1=C(F)C(=O)c2ccccc2C1=O)C(=O)N(CC)CC	mouse, plasma	oral, 25 mg/kg	7450 ng/mL
O=C(Nc1ccc(C(F)(F)F)nc1)N1CCC(Cc2cccc(Oc3ccc(C(F)(F)F)cn3)c2)CC1	male Swiss mouse, blood	oral, 1 mg/kg	140 nM
O=C1C2=C(CCN(Cc3ccccc3)C2)N2CCN=C2N1Cc1ccc(C(F)(F)F)cc1	female CD-1 mouse, plasma	oral, 50 mg/kg	2020 ng/mL
O=C(c1ccccc1)N1C(c2ccc(OCC3CCN(CCCF)C3)cc2)c2ccc(O)cc2CC12CC2 (centres unmarked)	C57BL/6 mouse, plasma	oral, 25 mg/kg	752 ng/mL
O=C(NCCCCc1ccccc1)n1c(=O)oc2cc(-c3ccc(F)cc3)ccc21	CD-1 mouse, plasma	intraperitoneal, 10 mg/kg	1770 ng/mL
CN1/C(=C/C=C/c2cc(-c3ccccc3)cc(-c3ccccc3)[o+]2)C(C)(C)c2ccccc21	male CD-1 mouse, plasma	intravenous, 1 mg/kg, single dose	101 ng/mL
O=C1OC2(c3ccccc31)c1cc(I)c(O)c(I)c1Oc1c2cc(I)c(O)c1I	female C57BL/6 mouse, plasma	oral, 100 mg/kg	325 ng/mL
CN(C)CCNC(=O)/C=C/C(Cc1ccccc1)Nc1ccnc2cc(Cl)ccc12 (centres unmarked)	CD-1 mouse, plasma	oral, 5 mg/kg, single dose	63.8 ng/mL
Cc1cc(O)cc(O)c1C(=O)c1c2c3c(c(O)cc(C)c3oc1=O)C(=O)c1c(O)cc(O)cc1-2	male Kunming mouse, plasma	intraperitoneal, 30 mg/kg	39500 ng/mL
O=C(OCc1cccc(O)c1O)c1ccc(O)c(CO)c1	male CD-1 mouse, plasma	intravenous, 10 mg/kg	27300 ng/mL
COCc1nc(C(F)(F)F)[nH]c1-c1cc(C(=O)N2CC(c3ccc(C#N)cc3)C2)c(C)cc1C	mouse, plasma	oral, 10 mg/kg	7740 ng/mL
CN1CCc2cc(Nc3ncc(C(F)(F)F)c(NCc4cc[nH]n4)n3)ccc2C1	C57BL/6 mouse, brain	oral, 50 mg/kg, single dose	140 ng/mL
CCNC(=O)c1noc(-c2cc(C(C)C)c(O)cc2O)c1NC(=O)CCN1CCOCC1	nude mouse, tumour	intraperitoneal, 80 mg/kg, single dose, tumour-bearing	4050 ng/mL
C[N+]1(CC(=O)OC2CCCCCCCCCCC2)CCCCC1	mouse, plasma	intraperitoneal, 2.5 mg/kg, single dose	229 ng/mL

For quick reference, copied from above:
SMILES	test system	setting	Cmax
CN(C)CCNC(=O)/C=C/C(Cc1ccccc1)Nc1ccnc2cc(Cl)ccc12 (centres unmarked)	CD-1 mouse, plasma	oral, 5 mg/kg, single dose	63.8 ng/mL
Brc1ccccc1-c1nnc(CSc2nnnn2-c2ccccc2)o1	male C57BL/6 mouse, plasma	intraperitoneal, 10 mg/kg	2630 nM
CCCCC(CC)CNC(=N)NC(=N)NCCCCCCCCNC(=N)NC(=N)NCC(CC)CCCC (centres unmarked)	female BALB/c mouse, plasma	intraperitoneal, 5 mg/kg, single dose	140 ng/mL
CC(=O)N[C@@H](Cc1ccc(O)cc1)CN(CC(=O)N[C@@H](CCCCN)CN(CC(=O)N[C@@H](Cc1ccccc1)CN(CC(=O)N[C@H]1CCCCNc2c(F)c(F)c(c(F)c2F)S(=O)(=O)c2c(F)c(F)c(c(F)c2F)NCCCC[C@@H](CN(CC(=O)N[C@@H](C)CN(CC(N)=O)S(C)(=O)=O)S(C)(=O)=O)NC(=O)CN(S(=O)(=O)CC(C)C)C[C@H](CC(C)C)NC(=O)CN(S(=O)(=O)CCN)C1)S(=O)(=O)CC(C)C)S(=O)(=O)CCN)S(C)(=O)=O	C57BL/6 mouse, plasma	intraperitoneal, 50 mg/kg	38900 ng/mL
Cc1ccc2oc(-c3c4c(N)n[nH]c(=O)c4nn3-c3ccc(NC(=O)/C=C/CN(C)C)cc3)c(C)c2c1	mouse, plasma	intraperitoneal, 3 mg/kg	282 ng/mL
O=C1OC2(c3ccccc31)c1cc(I)c(O)c(I)c1Oc1c2cc(I)c(O)c1I	female C57BL/6 mouse, plasma	oral, 100 mg/kg	325 ng/mL
